Experimental data of several laboratories.
Protocols differ between the studies behind these lines. “And” joins repeats or separate records; there may be more than shown.
Target: Cytochrome P450 2B6 (CYP2B6, Homo sapiens, UniProt P20813)
Sequence (P20813 1-491, as in one of the studies): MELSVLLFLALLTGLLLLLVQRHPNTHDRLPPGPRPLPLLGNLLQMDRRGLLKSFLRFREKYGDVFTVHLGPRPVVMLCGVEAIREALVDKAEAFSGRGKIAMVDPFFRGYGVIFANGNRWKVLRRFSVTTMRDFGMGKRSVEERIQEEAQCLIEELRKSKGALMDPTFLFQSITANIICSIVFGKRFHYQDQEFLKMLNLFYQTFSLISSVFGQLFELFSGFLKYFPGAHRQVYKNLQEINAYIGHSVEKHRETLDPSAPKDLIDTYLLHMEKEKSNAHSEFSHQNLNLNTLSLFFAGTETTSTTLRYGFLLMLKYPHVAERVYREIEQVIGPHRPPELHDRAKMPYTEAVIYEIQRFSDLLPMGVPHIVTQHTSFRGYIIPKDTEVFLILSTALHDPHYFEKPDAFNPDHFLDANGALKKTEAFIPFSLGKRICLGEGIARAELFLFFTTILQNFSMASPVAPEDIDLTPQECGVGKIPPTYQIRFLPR

| SMILES | assay | system | setting | measurement | value |
| --- | --- | --- | --- | --- | --- |
| Cn1cncc1[C@@](N)(c1ccc(Cl)cc1)c1ccc2c(c1)c(-c1cccc(Cl)c1)cc(=O)n2C |  |  |  | Ki | 2.9 µM |
| N#Cc1ccc([C@H]2CCc3cncn32)c(F)c1 | inhibitor |  | pH 7.4 | IC50 | ≥ 20 µM and 20 µM |
| Cc1nc(-c2cnc(NC(C)C)n(C)c2=O)ccc1Oc1ccnc(-c2cnn(C)c2)c1 | metabolism-dependent inhibition, inhibitor |  | 30 min preincubation with NADPH | IC50 | > 100 µM |
| N#C[C@H](C[C@@H]1CCCNC1=O)NC(=O)[C@H](CC1CC1)NC(=O)c1cc2cccc(Cl)c2[nH]1 | inhibitor |  |  | IC50 | > 100 µM |
| OCc1cc([C@@H](O)CNCCCCCCOCCOCc2c(Cl)cccc2Cl)ccc1O | inhibitor |  | 20 min | IC50 | 7.27 µM |
| CC(=O)N1CCN(c2ccc(OCC3COC(Cn4ccnc4)(c4ccc(Cl)cc4Cl)O3)cc2)CC1 (stereo not drawn) |  | pooled human liver microsomes | 20 min | IC50 | 2.94 µM |
| NC/C(=C\F)COc1cccc(Cn2c(=S)[nH]c(=O)c3[nH]cnc32)c1 | enzyme activity, inhibitor |  | CYP2B6 screen | IC50 | > 10 µM |
| Clc1ccc(CCC(Cn2ccnc2)Sc2c(Cl)cccc2Cl)cc1 (stereo not drawn) | inhibitor |  | 20 min | IC50 | 0.06 µM |
| CCOc1cc(-c2nncn2C)ccc1Nc1ncc2cc(C)nc(NCC(C)(C)C)c2n1 | enzyme activity, inhibitor |  |  | IC50 | > 50 µM |
